Experimental data pooled from the literature.
Numbered parts are unrelated; each lists some results of a single study.

Series 1
Target: Interferon regulatory factor 7, full length, phosphomimetic (IRF7, Homo sapiens, UniProt Q92985, residues 1-503, S471D/S472D/S475D/S476D/S477D/S483D/S484D/S487D)
Method: protein-binding microarray
Form: double-stranded DNA, one strand shown
Sample: in vitro
Concentration: 2200 nM top
Setting: 60-bp whole probe
With: salmon DNA 0.4 mg/ml
Baseline: random background probes
Reading: higher = stronger binding
Shared flanks, not repeated: GCCTAGCAC … GTCTTGATTCGCTTGACGCTGCTG
Construct (chain): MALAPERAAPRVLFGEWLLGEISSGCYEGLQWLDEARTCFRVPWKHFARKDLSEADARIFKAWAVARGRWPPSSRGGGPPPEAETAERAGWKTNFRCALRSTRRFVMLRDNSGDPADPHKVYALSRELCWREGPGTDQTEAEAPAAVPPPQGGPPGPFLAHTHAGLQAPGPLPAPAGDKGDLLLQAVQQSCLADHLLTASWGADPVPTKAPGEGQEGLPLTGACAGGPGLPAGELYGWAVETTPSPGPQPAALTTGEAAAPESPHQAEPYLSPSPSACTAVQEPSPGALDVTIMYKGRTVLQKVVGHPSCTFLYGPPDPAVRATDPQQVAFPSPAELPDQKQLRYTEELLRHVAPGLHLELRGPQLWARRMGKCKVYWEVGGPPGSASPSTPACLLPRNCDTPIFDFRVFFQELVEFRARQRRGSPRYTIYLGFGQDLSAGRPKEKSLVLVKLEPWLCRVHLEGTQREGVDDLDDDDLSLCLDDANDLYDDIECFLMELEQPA
Strand	fitted relative affinity [z-score]
GACGATATCGGGACTGGAGACGTGCTA	-0.0654
TTTACTTTCTTTTTTTCTTTGTGCTAG	10.4
TGGGAGCTCAGGAATCCCACGTGCTAG	-0.797
TATGGTATGCTCATGACAAAGTGCTAG	0.343
AGAGAATGTGGAGAAATAGGGTGCTAG	-0.862
TCATGTTTGGTCCTGAAACTGTGCTAG	1.59
GACTATTTCGGGTATCGAGACGTGCTA	2.34
TCAGGACTGCTTATCCTTTAGTGCTAG	0.556
GACGGTTTCGACACTAGGGACGTGCTA	2.39
AACTGTCTGCCTTTCAATCCGTGCTAG	1.26
GACGGTCTCGGTATCAGGACGTGCTAG	0.172
TTAGGTCTCCTACTGCTTTTGTGCTAG	0.487
TCATGTTTGTGTGTGTAACTGTGCTAG	1.54
GACGAACTGGGGTTTCGGGACGTGCTA	1.11
GACTGACTGCTTCTCCTGACGTGCTAG	0.964
GACGGTTTGCTTTTCCTGACGTGCTAG	2.09
GACGGTATCGGTCACGGGACGTGCTAG	-0.32
GACGAACTGGGGACTGAAGACGTGCTA	-0.0646
TTAGGTATCCTTATCTTTTAGTGCTAG	0.47

Series 2
Target: RING finger protein unkempt homolog, zinc fingers 1-6, GST-SBP tag (UNK, Homo sapiens, UniProt Q9C0B0, residues 30-357)
Sequence of UniProt Q9C0B0 (30-357, looked up): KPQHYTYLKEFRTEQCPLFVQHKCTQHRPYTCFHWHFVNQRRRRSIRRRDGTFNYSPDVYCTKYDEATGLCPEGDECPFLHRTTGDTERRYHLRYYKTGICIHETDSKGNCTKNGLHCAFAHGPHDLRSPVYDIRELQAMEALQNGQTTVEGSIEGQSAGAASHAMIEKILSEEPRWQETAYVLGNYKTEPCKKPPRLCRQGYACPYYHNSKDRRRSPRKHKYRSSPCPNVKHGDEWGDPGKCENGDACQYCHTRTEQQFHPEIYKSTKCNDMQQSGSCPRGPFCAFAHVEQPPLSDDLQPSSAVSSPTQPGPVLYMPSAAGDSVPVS
Method: RNA Bind-n-Seq
Form: RNA
Sample: in vitro
Concentration: not given
Setting: RNA with constant flanks, human and mouse sites, ends assumed
Baseline: input RNA pool
Reading: higher = stronger binding
Shared flanks, not repeated: GGGAGUUCUACAGUCCGACGAUC … CAACAGAGGAUUGAGCAUCA
Strand	bound/input enrichment [ratio]
CCAGUAUUCAACAUGUCAUACAAUCCAGCAGAAAACGCAGUGCUGCUCUGCACCAGAGCAAGCAAUCUAGAGAACAGUACCUACGACCUAUACACCAUCCCCAAAGACGCAGACUCCCAG	0.737
AUCGUUGAGGAGUCUUUUAAAUUAGAUUUUUGUUUUGUUGUCUCCCAAGUUAAUAUUAUAUUUAGAUAUCAGAGAGUCAGGCAAAAAGGAAAACUUUUAUCUCUAGGGAAAAAACAUUUA	18.5
CAAGGGAAGCCCAACUUUGAAGAGUUCUUUGAAAUUCUAACUCCCAAAAUCAACCAGACAUUUAGUGGCAUCAUGACAAUGUUGAACAUGCAGUUUGUCAUCCGGGUGAGGAGAUGGGAU	0.296
AUAUCUUUUGUUUUGGCUUGGUUUGAAGAAGGUGAAGAAACAAUUACAGCCUUUGUAGAACCUUUUGUAAUUUUACUCAUAUUAGUAGCCAAUGCAAUUGUGGGUGUAUGGCAGGAAAGA	0.644
GGGUUGCUUCCCAUCCCAACCUCCAGUCCUCUGACGGCAGUGAGUAGUCUUGGUGUUUCACUUAGCAGUUUGGGAGCUAUCCCAGCAGCAGCGCUGGACCCAAAUAUUACAACACUUGGA	0.116
CCCUUUGACAUCGCUGAUACCUCCACGGCCUUUUUUUGUUAUUAUGUCCAUUACUGGGAAAAAGGAGGAAUCCAACAGGUCAAAGGCCCUUUCAGAAGCAACUCCAUUUCAUUGGAUAAC	0.139
AGACUUAAGUUUCCUUGUAUUGAAGAUAACCUAUGACUGUAUGUUUUGCAUUCCUAGAAGCAGGUUAACUGUGUUUUUAAAUUGUUAUAACCACACCUUUUUGAAAUCUGCCCUACAAAA	0.238
UAAAUAAGUGUUUAAAAUAUAUAUAUACACCAAGGUUCCACCCUAAGAAAAAGGCUGGACUAGUUUCAGUCCGAGCCCUUAAAUAAUCCUUCUGUUUUUUUUUACGUUGAAUCUUUCUGC	1.18

Series 3
Target: Histone acetyltransferase KAT6A, winged helix 1, GST fusion (KAT6A, Homo sapiens, UniProt Q92794, residues 1-85)
Method: protein binding microarray
Form: double-stranded DNA, one strand shown
Sample: in vitro
Concentration: not given
Setting: 8-mer, flanks averaged, mean of 2 arrays, mostly near background
Baseline: not given
Reading: higher = stronger binding
Target sequence (chain): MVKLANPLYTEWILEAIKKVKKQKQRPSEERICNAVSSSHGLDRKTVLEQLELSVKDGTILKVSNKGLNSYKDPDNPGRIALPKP
Strand	E-score
AAGTCATG	-0.164
AGCGTGCG	0.363
GAAGTATA	0.04
CTTACCTA	-0.197
GACAGCAC	0.0174
ACGCATTG	0.189
GAGGAAAC	-0.0499
CTCAGCAG	-0.244
GATTCCGA	0.254
ATGGTTTC	-9e-05
AGCTCTCA	-0.141
AGTGGCGA	0.00416
ACTGTAAG	-0.0573
CCCGTAAG	0.177
AGTGTCGA	-0.183
ACGTTATC	-0.131
ACACGTTC	-0.0137
GAGTCCCC	-0.235
TATGCTAA	-0.095
GCGAACCC	0.307
AAAAGTCC	-0.0463
AGATGCCT	-0.214
TCCATAAA	-0.253
CGTTTCCA	-0.163
AGGGGCAC	-0.0558

Series 4
Target: Fragile X messenger ribonucleoprotein 1, C-terminal low-complexity region (Fmr1, Mus musculus, UniProt P35922)
Method: RNA Bind-n-Seq
Form: RNA
Sample: in vitro
Concentration: 200 nM
Setting: whole 134-nt RNA, ends assumed
With: 150 mM LiCl
Baseline: input library
Reading: higher = stronger binding
Each molecule: 7-deaza-guanosine replaces G
Shared flanks, not repeated: GGGAGUUCUACAGUCCGACGAUC … UGGAAUUCUCGGGUGUCAAGG
Strand	log2 enrichment
UCCUCAAGUCCUGUGCUACACAUCGUAUGUACCGAAUCGGAGGUUUGGUGGAAAGUAUUAUGUUACGCCGUUCGGAUCUGCACUUCCAGC	-1.7
UGUGCUACACAUCGUAUGUACCGAAUCGGGGUUUUUGGGGUUUUUUUGGGGUUUUUUUGGGGAAAGUAUUAUGUUACGCCGUUCGGAUCU	1.95
ACCAUACUUGACAACUUCUGAUUGAAUGCCCAUGCCCAAUGCCAACAUCCACGAACGCCAAUGACCAAUGCAGUACAAUGCCAGUGUUUC	1.08
GUCCUGUGCUACACAUCGUAUGUACCGAAUCGGGGCCCCGGGGCCCCGGGGCCCCGGGGAAAGUAUUAUGUUACGCCGUUCGGAUCUGCA	-1.87
UCAAGUCCUGUGCUACACAUCGUAUGUACCGAAUCGGGAAAAAGGGUGGGAGGGAAAGUAUUAUGUUACGCCGUUCGGAUCUGCACUUCC	-0.958
ACCAAGCAGGUGGGCAUCUUUGGGAAGUGGGGCAAGGGGGGGAUAGGGAGGGGGGUAACACUUUGGGAACAGGUGGUCCCAGGUCGUUUC	1.27
AGUCCUGUGCUACACAUCGUAUGUACCGAAUCGGGGCCCCGGGGCCCCGGCCCCGGGGAAAGUAUUAUGUUACGCCGUUCGGAUCUGCAC	-2.38
ACCAUGCAGGUGGGCAUCUUUGGGAAGUGGGGCAAGGGGGGGAUAGGGAGAGGGGUAACACUUUGGGAACAGGUGGUCCCAGGUCGUUUC	1.09

A few entries again (series 2):
Strand	bound/input enrichment [ratio]
UAAAUAAGUGUUUAAAAUAUAUAUAUACACCAAGGUUCCACCCUAAGAAAAAGGCUGGACUAGUUUCAGUCCGAGCCCUUAAAUAAUCCUUCUGUUUUUUUUUACGUUGAAUCUUUCUGC	1.18
CCAGUAUUCAACAUGUCAUACAAUCCAGCAGAAAACGCAGUGCUGCUCUGCACCAGAGCAAGCAAUCUAGAGAACAGUACCUACGACCUAUACACCAUCCCCAAAGACGCAGACUCCCAG	0.737
CCCUUUGACAUCGCUGAUACCUCCACGGCCUUUUUUUGUUAUUAUGUCCAUUACUGGGAAAAAGGAGGAAUCCAACAGGUCAAAGGCCCUUUCAGAAGCAACUCCAUUUCAUUGGAUAAC	0.139
AUAUCUUUUGUUUUGGCUUGGUUUGAAGAAGGUGAAGAAACAAUUACAGCCUUUGUAGAACCUUUUGUAAUUUUACUCAUAUUAGUAGCCAAUGCAAUUGUGGGUGUAUGGCAGGAAAGA	0.644
AGACUUAAGUUUCCUUGUAUUGAAGAUAACCUAUGACUGUAUGUUUUGCAUUCCUAGAAGCAGGUUAACUGUGUUUUUAAAUUGUUAUAACCACACCUUUUUGAAAUCUGCCCUACAAAA	0.238
CAAGGGAAGCCCAACUUUGAAGAGUUCUUUGAAAUUCUAACUCCCAAAAUCAACCAGACAUUUAGUGGCAUCAUGACAAUGUUGAACAUGCAGUUUGUCAUCCGGGUGAGGAGAUGGGAU	0.296
GGGUUGCUUCCCAUCCCAACCUCCAGUCCUCUGACGGCAGUGAGUAGUCUUGGUGUUUCACUUAGCAGUUUGGGAGCUAUCCCAGCAGCAGCGCUGGACCCAAAUAUUACAACACUUGGA	0.116
